Experimental data collected from several papers.
Compare with care: the assays were run in different laboratories. Several values in a cell are separate wells, animals, samples, runs or records.
Sequence of UniProt Q12809 (whole entry, looked up): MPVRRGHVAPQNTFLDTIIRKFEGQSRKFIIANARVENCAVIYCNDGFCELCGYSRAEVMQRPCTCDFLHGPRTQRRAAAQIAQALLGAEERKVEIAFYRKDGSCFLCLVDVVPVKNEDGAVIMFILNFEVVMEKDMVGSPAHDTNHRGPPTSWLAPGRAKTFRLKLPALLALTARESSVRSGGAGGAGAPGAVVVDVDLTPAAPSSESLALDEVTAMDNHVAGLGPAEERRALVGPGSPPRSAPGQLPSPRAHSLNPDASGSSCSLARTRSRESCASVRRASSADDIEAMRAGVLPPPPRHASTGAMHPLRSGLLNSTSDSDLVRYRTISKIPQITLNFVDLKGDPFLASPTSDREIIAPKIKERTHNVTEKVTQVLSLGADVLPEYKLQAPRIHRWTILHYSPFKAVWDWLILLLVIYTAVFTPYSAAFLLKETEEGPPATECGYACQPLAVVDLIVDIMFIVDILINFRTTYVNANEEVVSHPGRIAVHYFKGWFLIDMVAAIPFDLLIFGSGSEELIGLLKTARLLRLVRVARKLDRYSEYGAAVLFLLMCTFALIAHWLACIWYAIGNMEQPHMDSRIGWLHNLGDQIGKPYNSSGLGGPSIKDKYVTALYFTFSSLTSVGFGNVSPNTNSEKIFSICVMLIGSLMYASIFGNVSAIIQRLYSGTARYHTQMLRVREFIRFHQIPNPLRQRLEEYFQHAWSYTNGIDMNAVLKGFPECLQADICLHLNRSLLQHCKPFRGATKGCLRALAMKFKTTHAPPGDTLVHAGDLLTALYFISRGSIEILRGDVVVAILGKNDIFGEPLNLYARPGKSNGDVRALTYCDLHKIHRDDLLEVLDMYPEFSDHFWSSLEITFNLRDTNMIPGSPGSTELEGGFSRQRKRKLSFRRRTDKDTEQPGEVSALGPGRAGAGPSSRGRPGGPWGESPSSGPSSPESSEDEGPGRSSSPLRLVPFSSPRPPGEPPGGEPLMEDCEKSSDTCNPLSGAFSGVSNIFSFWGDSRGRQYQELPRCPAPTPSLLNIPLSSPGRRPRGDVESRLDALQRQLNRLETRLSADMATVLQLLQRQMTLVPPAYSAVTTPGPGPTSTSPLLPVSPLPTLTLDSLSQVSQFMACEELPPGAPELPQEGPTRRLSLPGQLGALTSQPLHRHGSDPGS
Sequence of UniProt P08684 (whole entry, looked up): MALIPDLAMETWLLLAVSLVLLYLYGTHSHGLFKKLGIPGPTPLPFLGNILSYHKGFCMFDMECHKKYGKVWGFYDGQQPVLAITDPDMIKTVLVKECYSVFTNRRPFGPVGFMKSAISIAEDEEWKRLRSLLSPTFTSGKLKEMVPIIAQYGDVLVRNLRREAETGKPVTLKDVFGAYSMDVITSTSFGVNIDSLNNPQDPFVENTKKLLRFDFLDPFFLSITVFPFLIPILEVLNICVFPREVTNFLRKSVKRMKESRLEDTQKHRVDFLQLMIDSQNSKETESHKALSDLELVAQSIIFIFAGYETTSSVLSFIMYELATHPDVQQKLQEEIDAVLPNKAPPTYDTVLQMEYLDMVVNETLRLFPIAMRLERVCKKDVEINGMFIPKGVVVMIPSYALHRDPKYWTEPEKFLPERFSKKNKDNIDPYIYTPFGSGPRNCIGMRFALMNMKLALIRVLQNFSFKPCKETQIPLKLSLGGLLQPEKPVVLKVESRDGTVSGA

COc1ccc(-n2nc(C(C)=O)s/c2=N\N=C(/C)c2ccc(NC(C)=O)cc2)cc1  viability (WI-38; 0.078 µM, 24 (unit not given)): 80.2%
COc1cccc(Oc2ccccc2NC(=O)CNC(=O)c2cccc3ccccc23)c1  blood glucose (esterase-deficient SCID mice, male; oral, 100 mg/kg/day, 14 days, toxicity study): 192 mg/dL and 221 mg/dL and 194 mg/dL
CO[C@H]1C[C@@H]2CC[C@@H](C)[C@@](O)(O2)C(=O)C(=O)N2CCCC[C@H]2C(=O)O[C@H]([C@H](C)C[C@@H]2CC[C@@H](OC(=O)NCCOCCOCCOCCOCCOCCOCCOCCOCCC(=O)N3CCc4cc(Cn5nc(-c6ccc7oc(N)nc7c6)c6c(N)ncnc65)ccc4C3)[C@H](OC)C2)C[C@@H](O)[C@H](C)/C=C(\C)[C@@H](O)[C@@H](OC)C(=O)[C@H](C)C[C@H](C)/C=C/C=C/C=C/1C  TRAE incidence (phase 1 dose escalation, item: diarrhoea; advanced solid tumour patients; intravenous, 12 mg weekly, any grade): 16.7%
CN1CC[C@@H](c2c(O)cc(O)c3c(=O)cc(-c4ccc(C(F)(F)F)cc4Cl)oc23)[C@@H]1CO  patients with adverse event (item: febrile neutropenia; B-cell malignancies or AML; oral, 50 mg, grade 3 to 4, continuous dosing): 0%
CN[C@@]1(c2ccccc2Cl)CCCCC1=O  inhibition (KCNH2 (Homo sapiens, UniProt Q12809); radioligand binding, radioligand displacement; 30 µM): 11%
CCN(CC)C(=O)[C@@H]1C=C2c3cccc4[nH]cc(c34)C[C@H]2N(C)C1  List of Complaints score (item: lack of appetite; healthy volunteers; dose not given, 12 to 24 h; relative to: placebo, direction not given): 4
CC[C@H](C)[C@H](NC(=O)[C@H](CC(C)C)NC(=O)[C@@H](NC(=O)[C@H](CCCNC(=N)N)NC(=O)[C@H](CCCNC(=N)N)NC(=O)[C@H](CCCNC(=N)N)NC(=O)[C@@H](N)CCCNC(=N)N)[C@@H](C)CC)C(=O)N[C@@H](CCCNC(=N)N)C(=O)N[C@@H](CCCNC(=N)N)C(=O)N[C@H](C(=O)N[C@@H](CC(C)C)C(=O)N[C@@H](CCCNC(=N)N)C(=O)N[C@@H](CC(C)C)C(=O)N[C@@H](CCCNC(=N)N)C(=O)N[C@@H](CO)C(=O)N[C@@H](CO)C(=O)N[C@@H](C)C(=O)N[C@@H](Cc1ccc(O)cc1)C(N)=O)C(C)C  hemolysis (human erythrocytes; 400 µM, 1 h; relative to: Triton X-100): 11%
Cc1ncc2n1-c1ccc(Cl)cc1C(c1ccccc1F)=NC2  Cmax (Cytochrome P450 3A4 (CYP3A4, Homo sapiens, UniProt P08684); human, plasma; oral, 2 mg, day 1, alone, geometric mean): 7.51 ng/mL
COc1cc2c(Oc3ccc4[nH]c(C)cc4c3F)ccnc2cc1OCC1(N)CC1  grade 1 or 2 mouth ulcer (paediatric recurrent refractory sarcoma; 12 mg): 0%
CC[C@H](C)[C@H](NC(=O)[C@H](C)N)C(=O)N[C@@H](CO)C(=O)NCC(=O)N[C@@H](CO)C(=O)N[C@@H](CC(C)C)C(=O)N[C@H](C(=O)N[C@H](C(=O)N[C@@H](CC(C)C)C(=O)N[C@@H](Cc1ccccc1)C(=O)NCC(=O)N[C@@H](Cc1ccc(O)cc1)C(=O)N[C@@H](CCCNC(=N)N)C(=O)N[C@@H](CCCCN)C(=O)N[C@@H](CCCNC(=N)N)C(=O)N[C@@H](CCCCN)C(=O)N[C@@H](CCCNC(=N)N)C(=O)N[C@@H](CCCCN)C(N)=O)[C@@H](C)O)C(C)C  hemolysis (human erythrocytes; 400 µM, 1 h; relative to: Triton X-100): 16%
Cc1cc(C(=O)NC(C)(C)COc2cccc3c2C(N)=NS(=O)(=O)N3)cc(C)n1  revertant ratio (Salmonella typhimurium; Ames test, initial; TA1535; 5.00 µg/plate; relative to: solvent control): 1

Excerpt of the above:
CO[C@H]1C[C@@H]2CC[C@@H](C)[C@@](O)(O2)C(=O)C(=O)N2CCCC[C@H]2C(=O)O[C@H]([C@H](C)C[C@@H]2CC[C@@H](OC(=O)NCCOCCOCCOCCOCCOCCOCCOCCOCCC(=O)N3CCc4cc(Cn5nc(-c6ccc7oc(N)nc7c6)c6c(N)ncnc65)ccc4C3)[C@H](OC)C2)C[C@@H](O)[C@H](C)/C=C(\C)[C@@H](O)[C@@H](OC)C(=O)[C@H](C)C[C@H](C)/C=C/C=C/C=C/1C  TRAE incidence (phase 1 dose escalation, item: diarrhoea; advanced solid tumour patients; intravenous, 12 mg weekly, any grade): 16.7%
CN[C@@]1(c2ccccc2Cl)CCCCC1=O  inhibition (KCNH2 (Homo sapiens, UniProt Q12809); radioligand binding, radioligand displacement; 30 µM): 11%
